Measured values from different studies.
Numbered parts are unrelated; each lists some results of a single study.
Chain of UniProt Q9UK32 (whole entry, looked up): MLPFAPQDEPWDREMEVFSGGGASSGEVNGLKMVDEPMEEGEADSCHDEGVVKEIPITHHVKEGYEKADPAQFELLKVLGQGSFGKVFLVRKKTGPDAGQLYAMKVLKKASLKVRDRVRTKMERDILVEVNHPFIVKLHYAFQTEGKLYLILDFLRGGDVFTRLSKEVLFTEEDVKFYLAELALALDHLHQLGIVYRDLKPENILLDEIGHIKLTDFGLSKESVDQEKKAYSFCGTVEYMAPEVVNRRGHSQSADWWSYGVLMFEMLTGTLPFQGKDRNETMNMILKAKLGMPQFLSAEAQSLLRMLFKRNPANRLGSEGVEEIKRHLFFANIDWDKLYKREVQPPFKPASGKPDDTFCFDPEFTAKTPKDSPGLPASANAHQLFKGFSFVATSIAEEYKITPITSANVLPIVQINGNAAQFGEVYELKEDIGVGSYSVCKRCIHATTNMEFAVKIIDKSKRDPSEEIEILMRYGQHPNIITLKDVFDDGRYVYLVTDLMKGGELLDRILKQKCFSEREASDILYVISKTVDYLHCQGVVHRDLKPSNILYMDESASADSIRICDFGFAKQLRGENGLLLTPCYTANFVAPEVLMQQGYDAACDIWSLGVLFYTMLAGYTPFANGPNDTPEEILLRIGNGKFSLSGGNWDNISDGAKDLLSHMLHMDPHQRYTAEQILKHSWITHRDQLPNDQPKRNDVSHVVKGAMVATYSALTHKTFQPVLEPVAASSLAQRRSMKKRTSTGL
Chain of UniProt Q9P289 (whole entry, looked up): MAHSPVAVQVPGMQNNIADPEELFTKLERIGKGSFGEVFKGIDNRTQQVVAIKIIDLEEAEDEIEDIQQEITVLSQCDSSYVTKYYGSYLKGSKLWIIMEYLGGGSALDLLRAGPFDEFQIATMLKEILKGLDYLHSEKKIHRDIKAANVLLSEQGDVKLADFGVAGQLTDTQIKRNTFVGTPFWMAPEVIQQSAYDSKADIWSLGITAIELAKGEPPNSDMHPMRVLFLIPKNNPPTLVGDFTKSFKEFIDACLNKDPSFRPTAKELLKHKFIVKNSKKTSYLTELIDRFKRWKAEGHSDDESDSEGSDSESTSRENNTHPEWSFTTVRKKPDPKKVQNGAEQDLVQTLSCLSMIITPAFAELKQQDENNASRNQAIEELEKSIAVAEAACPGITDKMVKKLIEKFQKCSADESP
Chain of UniProt P29597 (whole entry, looked up): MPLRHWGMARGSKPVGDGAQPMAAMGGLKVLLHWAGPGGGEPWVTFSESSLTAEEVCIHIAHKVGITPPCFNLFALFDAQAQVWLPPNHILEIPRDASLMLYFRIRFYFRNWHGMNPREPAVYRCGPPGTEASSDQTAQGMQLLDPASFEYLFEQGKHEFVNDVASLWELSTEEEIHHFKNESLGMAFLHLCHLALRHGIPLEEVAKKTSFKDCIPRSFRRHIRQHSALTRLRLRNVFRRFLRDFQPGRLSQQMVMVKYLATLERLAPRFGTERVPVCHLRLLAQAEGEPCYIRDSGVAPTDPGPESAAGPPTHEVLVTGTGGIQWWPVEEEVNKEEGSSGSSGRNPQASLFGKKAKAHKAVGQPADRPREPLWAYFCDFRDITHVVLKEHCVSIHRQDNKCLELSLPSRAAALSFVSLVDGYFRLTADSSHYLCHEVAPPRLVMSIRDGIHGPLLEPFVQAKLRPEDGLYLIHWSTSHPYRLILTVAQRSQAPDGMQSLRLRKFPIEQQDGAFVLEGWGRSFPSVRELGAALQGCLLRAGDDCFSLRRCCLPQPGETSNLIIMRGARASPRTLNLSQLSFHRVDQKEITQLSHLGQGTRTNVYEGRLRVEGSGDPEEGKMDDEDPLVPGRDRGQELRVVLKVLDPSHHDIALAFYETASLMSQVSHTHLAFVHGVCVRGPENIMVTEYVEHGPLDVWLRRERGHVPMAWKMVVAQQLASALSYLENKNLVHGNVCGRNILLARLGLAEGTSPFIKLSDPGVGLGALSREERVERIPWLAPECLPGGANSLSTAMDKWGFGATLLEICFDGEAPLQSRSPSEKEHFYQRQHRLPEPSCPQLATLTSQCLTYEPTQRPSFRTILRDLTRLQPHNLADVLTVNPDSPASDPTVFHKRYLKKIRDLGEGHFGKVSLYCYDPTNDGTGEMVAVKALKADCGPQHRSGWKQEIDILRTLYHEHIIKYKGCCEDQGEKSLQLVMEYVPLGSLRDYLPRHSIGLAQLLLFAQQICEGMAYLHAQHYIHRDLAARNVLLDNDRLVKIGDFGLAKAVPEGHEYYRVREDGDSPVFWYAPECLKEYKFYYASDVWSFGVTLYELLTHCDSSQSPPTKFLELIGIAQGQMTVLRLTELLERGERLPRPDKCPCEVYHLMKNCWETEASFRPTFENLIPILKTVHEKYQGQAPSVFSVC
Chain of UniProt Q07002 (whole entry, looked up): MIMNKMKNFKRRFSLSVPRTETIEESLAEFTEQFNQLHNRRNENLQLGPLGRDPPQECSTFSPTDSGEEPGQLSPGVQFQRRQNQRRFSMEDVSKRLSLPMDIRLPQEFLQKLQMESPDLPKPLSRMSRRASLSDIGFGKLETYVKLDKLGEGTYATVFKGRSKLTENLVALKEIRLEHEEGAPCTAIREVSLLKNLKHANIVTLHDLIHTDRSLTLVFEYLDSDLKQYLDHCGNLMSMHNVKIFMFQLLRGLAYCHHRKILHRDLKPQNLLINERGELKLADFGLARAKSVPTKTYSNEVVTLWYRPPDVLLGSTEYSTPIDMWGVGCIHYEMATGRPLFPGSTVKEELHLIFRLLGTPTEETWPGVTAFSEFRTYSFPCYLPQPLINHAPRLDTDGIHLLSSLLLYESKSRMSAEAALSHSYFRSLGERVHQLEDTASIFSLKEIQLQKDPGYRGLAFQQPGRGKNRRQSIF
Chain of UniProt O15111 (whole entry, looked up): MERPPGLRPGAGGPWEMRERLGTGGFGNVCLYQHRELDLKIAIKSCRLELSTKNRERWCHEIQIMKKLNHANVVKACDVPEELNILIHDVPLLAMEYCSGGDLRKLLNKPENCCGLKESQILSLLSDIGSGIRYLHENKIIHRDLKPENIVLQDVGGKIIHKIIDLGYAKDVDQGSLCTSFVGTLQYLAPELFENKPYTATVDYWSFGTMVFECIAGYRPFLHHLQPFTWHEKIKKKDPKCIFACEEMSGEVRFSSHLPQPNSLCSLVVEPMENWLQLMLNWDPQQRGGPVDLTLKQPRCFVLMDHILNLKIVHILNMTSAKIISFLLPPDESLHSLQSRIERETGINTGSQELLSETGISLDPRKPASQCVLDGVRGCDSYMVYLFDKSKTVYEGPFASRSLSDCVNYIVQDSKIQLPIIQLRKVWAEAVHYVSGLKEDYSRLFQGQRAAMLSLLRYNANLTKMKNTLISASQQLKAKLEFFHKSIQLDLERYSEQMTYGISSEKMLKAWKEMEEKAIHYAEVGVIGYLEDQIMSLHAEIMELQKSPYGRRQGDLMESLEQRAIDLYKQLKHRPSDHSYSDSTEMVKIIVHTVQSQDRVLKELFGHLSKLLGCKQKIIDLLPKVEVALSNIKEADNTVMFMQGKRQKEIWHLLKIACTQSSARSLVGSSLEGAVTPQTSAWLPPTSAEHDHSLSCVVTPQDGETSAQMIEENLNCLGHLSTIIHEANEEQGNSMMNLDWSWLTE
Chain of UniProt Q16832 (whole entry, looked up): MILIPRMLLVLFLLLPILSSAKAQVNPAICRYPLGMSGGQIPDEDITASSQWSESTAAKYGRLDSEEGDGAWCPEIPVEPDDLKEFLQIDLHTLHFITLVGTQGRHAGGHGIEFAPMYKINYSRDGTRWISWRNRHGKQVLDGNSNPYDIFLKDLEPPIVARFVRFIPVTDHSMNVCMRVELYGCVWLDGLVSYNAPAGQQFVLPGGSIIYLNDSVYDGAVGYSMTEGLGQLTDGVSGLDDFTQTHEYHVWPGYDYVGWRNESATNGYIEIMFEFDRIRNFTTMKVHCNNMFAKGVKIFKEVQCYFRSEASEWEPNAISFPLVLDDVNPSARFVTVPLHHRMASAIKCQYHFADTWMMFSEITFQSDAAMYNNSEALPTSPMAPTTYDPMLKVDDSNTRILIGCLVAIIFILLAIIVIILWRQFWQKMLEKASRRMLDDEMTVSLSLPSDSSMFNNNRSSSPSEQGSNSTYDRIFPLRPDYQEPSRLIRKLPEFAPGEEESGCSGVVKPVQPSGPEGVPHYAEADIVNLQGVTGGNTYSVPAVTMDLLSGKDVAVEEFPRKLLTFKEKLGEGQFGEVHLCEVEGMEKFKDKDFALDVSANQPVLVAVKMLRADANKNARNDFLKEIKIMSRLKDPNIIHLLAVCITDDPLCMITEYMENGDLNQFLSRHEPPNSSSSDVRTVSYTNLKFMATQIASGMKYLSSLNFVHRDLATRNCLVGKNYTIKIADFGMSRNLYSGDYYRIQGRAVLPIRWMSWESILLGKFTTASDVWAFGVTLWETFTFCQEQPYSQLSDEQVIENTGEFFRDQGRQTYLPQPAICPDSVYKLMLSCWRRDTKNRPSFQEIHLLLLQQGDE

Study 1
Target: Max-binding protein MNT, bHLH-zipper, MAX partner unstated (MNT, Homo sapiens, UniProt Q99583, residues 220-300)
Technique: protein-binding microarray
Form: double-stranded DNA, one strand shown
Sample: in vitro
Concentration: not given
Notes: k-mer, scored over probes, only values ≥0.25
Direction: higher = stronger binding
Target sequence (chain): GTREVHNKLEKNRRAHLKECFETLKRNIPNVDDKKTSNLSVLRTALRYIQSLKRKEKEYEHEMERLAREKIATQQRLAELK
Oligonucleotide	E-score
ACGACACG	0.33
CATGCCAG	0.276
AGGCATGC	0.377
CATGGTTC	0.284
CACGGGGA	0.332
ACATGAGG	0.404
CATGCTGA	0.395
ACATGACT	0.271

Study 2
Target: G protein-coupled receptor kinase 3 (GRK3, Homo sapiens, UniProt P35626)
Observed: enzyme activity
Mode: inhibitor
Concentration: 0.5 µM
Reference: control
Target sequence (P35626 1-688): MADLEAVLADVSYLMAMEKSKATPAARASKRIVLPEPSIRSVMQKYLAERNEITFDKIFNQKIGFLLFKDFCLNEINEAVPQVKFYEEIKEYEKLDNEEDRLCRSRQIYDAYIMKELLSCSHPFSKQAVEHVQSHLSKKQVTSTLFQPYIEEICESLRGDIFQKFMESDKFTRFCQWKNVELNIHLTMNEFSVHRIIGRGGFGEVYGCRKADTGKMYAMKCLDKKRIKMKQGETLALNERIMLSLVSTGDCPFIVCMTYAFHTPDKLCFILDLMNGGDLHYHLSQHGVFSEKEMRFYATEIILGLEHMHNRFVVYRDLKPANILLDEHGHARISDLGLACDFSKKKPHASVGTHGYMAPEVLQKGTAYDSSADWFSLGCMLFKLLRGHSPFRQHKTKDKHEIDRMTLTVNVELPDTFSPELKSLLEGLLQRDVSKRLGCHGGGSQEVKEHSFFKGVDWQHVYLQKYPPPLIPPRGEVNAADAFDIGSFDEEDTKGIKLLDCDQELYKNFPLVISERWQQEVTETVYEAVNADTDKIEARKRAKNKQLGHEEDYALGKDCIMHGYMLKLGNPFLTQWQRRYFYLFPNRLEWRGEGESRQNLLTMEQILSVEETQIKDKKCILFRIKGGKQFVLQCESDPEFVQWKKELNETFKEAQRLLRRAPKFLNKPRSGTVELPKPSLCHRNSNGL
SMILES	remaining activity [%]
Cc1cccc(-c2[nH]c(C(C)(C)C)nc2-c2ccc3c(c2)OCO3)n1	96.3
Cn1c2ccccc2c2c3c(c4c5ccccc5n(CCC#N)c4c21)CNC3=O	106
NCCNc1ncc(C(N)=O)c(Nc2cccc(C(F)(F)F)c2)n1	90.3
Nc1ncnc2n[nH]c(Nc3ccc(F)cc3)c12	102
OCC(O)CCON=C1C(c2c(O)[nH]c3ccccc23)=Nc2ccccc21 (stereo not drawn)	100
COc1cc2nccc(Oc3ccc(NC(=S)NC(=O)c4ccccc4C)cc3)c2cc1OC	94.9
Cc1ccc(NC(=O)c2ccc(CN3CCN(C)CC3)cc2)cc1Nc1nc(-c2cccnc2)cs1	100
Cc1ccc(Nc2nccc(N(C)c3ccc4c(C)n(C)nc4c3)n2)cc1S(N)(=O)=O	99.3
O=S(=O)(c1cccc2cnccc12)N1CCCNCC1	100

Study 3
SMILES: O=C(NCc1ncc(C(F)(F)F)cc1Cl)c1ccc2c(c1)C1(CCS(=O)(=O)CC1)[C@@H](C1CC1)N2S(=O)(=O)c1ccc(F)cc1
Observed: cell-free assay
Technique: competition with immobilised ligand
Concentration: 1 µM
target	remaining binding
Ribosomal protein S6 kinase alpha-6, N-terminal kinase domain (RPS6KA6, Homo sapiens, UniProt Q9UK32)	84%
STK26 (Homo sapiens, UniProt Q9P289)	82%
Non-receptor tyrosine-protein kinase TYK2, JH1 (TYK2, Homo sapiens, UniProt P29597)	46%
CDK18 (Homo sapiens, UniProt Q07002)	100%
CHUK (Homo sapiens, UniProt O15111)	84%
DDR2 (Homo sapiens, UniProt Q16832)	67%

Further values, each from its own experiment
Substance	target	test	system	conditions	how to read	endpoint	result
PhoQ, residues 284 288 289 292 302 303 TSTLRA	PhoP, residues 12 14 15 18 19 IFFTR (Escherichia coli, UniProt P23836)	Sort-seq, measured: YFP reporter	E. coli	PhoQ-PhoP variant library, added: 10 µM Mg2+	reference: high Mg2+ state, higher = stronger signaling	fold induction	1.58

Some of these lines once more (study 1):
Oligonucleotide	E-score
ACATGACT	0.271
CATGCTGA	0.395
